Results collected from several papers.
Parts stem from different laboratories: compare values within a part only. “And” joins repeats or separate records; there may be more than shown.
Sequence of UniProt P35626 (whole entry, looked up): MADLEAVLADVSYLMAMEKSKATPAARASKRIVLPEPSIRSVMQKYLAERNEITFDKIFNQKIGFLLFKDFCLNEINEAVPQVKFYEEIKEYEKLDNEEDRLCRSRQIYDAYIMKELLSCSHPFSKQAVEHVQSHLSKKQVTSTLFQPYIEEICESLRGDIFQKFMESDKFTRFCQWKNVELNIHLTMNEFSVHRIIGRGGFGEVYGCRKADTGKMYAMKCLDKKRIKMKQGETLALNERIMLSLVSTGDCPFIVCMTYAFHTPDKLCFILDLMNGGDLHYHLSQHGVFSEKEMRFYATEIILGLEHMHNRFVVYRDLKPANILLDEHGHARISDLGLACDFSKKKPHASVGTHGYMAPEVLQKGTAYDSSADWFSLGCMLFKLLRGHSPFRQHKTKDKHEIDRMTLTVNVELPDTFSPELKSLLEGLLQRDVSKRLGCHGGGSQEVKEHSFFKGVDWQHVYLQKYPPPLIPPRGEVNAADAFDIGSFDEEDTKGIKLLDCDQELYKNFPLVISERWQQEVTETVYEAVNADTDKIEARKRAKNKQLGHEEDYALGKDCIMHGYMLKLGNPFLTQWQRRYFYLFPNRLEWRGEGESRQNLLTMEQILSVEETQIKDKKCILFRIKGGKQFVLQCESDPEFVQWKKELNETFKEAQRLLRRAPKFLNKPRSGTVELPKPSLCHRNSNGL
Sequence of UniProt P80192 (whole entry, looked up): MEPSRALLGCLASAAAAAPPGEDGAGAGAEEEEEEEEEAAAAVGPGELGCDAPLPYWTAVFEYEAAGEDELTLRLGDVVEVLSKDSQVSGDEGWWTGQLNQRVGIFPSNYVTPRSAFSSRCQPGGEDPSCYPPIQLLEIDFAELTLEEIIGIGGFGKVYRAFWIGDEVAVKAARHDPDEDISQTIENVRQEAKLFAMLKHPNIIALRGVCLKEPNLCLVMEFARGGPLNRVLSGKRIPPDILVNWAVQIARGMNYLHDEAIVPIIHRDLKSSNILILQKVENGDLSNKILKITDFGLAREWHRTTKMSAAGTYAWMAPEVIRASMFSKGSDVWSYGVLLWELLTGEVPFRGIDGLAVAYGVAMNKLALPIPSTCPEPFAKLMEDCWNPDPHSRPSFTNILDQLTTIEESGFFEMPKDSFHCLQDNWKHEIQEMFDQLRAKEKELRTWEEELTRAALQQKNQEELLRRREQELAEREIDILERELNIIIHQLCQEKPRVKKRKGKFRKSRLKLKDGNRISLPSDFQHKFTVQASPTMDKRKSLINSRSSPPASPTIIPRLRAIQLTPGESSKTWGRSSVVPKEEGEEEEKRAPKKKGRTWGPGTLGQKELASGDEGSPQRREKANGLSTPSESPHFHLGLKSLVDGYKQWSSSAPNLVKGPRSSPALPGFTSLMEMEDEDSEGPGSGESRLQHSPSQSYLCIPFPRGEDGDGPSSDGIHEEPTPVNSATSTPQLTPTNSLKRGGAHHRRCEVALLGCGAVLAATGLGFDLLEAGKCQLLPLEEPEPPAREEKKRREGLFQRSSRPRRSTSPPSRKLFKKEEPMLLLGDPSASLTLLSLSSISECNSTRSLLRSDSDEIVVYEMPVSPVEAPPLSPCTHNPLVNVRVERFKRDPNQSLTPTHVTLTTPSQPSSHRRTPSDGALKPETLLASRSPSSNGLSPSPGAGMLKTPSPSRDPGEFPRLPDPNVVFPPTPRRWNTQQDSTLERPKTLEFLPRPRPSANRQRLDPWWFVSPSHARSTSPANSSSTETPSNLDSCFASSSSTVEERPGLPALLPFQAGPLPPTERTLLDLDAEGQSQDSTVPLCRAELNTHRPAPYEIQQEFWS
Sequence of UniProt Q9BYT3 (whole entry, looked up): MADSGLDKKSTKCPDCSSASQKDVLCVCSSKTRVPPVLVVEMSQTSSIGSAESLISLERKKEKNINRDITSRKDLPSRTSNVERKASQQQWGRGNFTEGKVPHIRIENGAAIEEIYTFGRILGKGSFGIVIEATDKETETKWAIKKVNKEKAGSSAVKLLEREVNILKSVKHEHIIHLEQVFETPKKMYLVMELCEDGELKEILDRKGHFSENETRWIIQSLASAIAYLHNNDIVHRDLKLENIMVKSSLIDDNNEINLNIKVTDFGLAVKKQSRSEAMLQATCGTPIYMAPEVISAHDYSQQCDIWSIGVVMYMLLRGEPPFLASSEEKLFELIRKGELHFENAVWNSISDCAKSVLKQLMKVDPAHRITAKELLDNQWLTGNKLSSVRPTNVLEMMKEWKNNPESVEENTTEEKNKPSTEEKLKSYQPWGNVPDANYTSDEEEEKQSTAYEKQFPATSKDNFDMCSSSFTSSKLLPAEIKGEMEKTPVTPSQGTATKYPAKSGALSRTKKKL
Sequence of UniProt Q9BZL6 (whole entry, looked up): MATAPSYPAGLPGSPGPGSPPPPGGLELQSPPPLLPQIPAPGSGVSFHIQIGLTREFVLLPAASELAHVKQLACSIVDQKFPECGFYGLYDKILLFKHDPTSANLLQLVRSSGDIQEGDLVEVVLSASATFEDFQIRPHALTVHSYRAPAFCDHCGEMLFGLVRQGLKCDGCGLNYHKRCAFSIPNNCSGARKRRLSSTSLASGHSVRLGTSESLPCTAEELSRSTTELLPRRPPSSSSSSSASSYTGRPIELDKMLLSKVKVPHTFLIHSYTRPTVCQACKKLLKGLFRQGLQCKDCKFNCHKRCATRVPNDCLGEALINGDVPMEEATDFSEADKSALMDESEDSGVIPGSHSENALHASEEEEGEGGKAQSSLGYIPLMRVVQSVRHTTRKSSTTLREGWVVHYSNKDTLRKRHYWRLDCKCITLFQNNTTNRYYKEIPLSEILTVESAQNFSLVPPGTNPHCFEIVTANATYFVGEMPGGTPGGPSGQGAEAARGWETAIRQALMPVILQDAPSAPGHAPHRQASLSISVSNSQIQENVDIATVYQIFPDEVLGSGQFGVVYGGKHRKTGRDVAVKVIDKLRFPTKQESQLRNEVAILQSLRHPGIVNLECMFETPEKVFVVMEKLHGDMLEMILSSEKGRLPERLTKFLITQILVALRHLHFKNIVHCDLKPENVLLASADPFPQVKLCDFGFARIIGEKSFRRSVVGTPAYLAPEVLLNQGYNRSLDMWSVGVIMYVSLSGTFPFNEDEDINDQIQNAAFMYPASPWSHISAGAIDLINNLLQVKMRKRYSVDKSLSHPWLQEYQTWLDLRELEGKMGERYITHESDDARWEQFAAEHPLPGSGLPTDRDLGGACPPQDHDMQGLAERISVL
Sequence of UniProt P11802 (whole entry, looked up): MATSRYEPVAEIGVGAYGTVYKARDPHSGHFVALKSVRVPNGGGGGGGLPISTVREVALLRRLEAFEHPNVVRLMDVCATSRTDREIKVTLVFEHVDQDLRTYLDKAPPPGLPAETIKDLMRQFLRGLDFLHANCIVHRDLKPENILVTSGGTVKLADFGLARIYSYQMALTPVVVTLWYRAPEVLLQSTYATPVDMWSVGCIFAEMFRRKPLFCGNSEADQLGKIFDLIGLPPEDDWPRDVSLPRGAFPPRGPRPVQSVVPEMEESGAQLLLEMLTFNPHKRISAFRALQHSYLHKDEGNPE
Sequence of UniProt P30530 (whole entry, looked up): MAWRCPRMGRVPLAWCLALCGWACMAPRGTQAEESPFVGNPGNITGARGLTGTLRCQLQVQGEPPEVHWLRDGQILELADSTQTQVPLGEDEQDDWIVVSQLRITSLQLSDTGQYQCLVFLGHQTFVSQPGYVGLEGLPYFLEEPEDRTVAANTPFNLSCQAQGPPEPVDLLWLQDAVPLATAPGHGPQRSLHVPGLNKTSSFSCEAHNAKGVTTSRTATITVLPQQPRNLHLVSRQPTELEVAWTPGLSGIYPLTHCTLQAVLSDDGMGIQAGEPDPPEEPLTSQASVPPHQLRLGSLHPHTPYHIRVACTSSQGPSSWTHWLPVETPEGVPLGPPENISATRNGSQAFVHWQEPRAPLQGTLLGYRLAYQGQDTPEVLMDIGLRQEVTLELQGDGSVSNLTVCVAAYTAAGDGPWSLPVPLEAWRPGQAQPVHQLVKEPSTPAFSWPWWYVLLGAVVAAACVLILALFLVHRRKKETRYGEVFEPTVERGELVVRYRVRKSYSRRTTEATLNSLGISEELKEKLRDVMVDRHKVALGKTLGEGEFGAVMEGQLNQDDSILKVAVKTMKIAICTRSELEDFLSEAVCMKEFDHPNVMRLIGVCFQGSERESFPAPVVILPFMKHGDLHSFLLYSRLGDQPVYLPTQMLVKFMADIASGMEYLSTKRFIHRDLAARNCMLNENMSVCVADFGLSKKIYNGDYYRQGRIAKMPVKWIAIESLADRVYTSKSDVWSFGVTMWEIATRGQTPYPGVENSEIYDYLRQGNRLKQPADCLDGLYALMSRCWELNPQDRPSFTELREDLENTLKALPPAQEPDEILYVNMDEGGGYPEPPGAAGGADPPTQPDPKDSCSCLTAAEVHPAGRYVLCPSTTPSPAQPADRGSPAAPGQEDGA
Sequence of UniProt Q8WTQ7 (whole entry, looked up): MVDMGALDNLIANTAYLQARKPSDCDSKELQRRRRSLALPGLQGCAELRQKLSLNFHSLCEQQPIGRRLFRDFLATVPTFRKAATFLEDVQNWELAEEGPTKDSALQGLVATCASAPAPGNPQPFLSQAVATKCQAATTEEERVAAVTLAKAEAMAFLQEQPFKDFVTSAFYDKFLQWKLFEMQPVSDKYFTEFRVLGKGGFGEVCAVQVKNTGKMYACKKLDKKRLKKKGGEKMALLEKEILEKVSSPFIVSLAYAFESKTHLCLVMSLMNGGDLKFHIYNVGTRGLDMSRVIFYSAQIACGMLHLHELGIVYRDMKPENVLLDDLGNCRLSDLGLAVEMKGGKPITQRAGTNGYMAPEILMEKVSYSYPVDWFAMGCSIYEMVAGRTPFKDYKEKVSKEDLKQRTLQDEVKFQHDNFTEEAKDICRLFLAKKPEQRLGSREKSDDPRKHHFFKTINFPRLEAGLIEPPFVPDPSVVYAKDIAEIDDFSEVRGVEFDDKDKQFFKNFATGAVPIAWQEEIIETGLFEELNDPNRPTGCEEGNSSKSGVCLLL

Study 1
Compound: COc1ccc(S(=O)(=O)N(CCO)c2ccccc2CN(C)CC=Cc2ccc(Cl)cc2)cc1
Effect on: enzyme activity
Mode: inhibitor
Tested at: 0.5 µM
Baseline: control
Measurement: remaining activity
GRK3 (Homo sapiens, UniProt P35626): 105%
PRKACA (Homo sapiens, UniProt P17612): 104%
PRKCA (Homo sapiens, UniProt P17252): 98.2%
DAPK1 (Homo sapiens, UniProt P53355): 120%
MAP3K3 (Homo sapiens, UniProt Q99759): 99.8%
MAPK9 (Homo sapiens, UniProt P45984): 85.5%
STK10 (Homo sapiens, UniProt O94804): 99.4%
STK11 (Homo sapiens, UniProt Q15831): 97.7%
OXSR1 (Homo sapiens, UniProt O95747): 106%
Cyclin-dependent kinase 5, with p25 (CDK5, Homo sapiens, UniProt Q00535): 97.7%
Cyclin-dependent kinase 4, with cyclin D1 (CDK4, Homo sapiens, UniProt P11802): 94.6%
TGFBR1 (Homo sapiens, UniProt P36897): 101%
cGMP-dependent protein kinase 1, isoform beta (PRKG1, Homo sapiens, UniProt Q13976): 93.2%
DAPK2 (Homo sapiens, UniProt Q9UIK4): 107%

Study 2
SMILES: Cc1cccc(/C=N/Nc2cc(N3CCOCC3)nc(OCCc3ccccn3)n2)c1
Cell line: L444P/L444P Gaucher fibroblasts
Technique: 4-MUG hydrolysis in lysate
Time: 72 h
Baseline: vehicle
Measurement: enzyme activity
50 nM: 183% and 171% and 197% and 181% and 166%
5 nM: 121% and 110% and 96.9% and 116% and 115% and 117%
0.5 µM, without ISRIB: 160% and 151% and 163% and 146% and 153% and 178%

Study 3
Organism: Sarcocystis neurona
Effect on: parasite activity
Tested at: concentration not given
Measurement: activity class
Cl.O.O=C1N(c2ccccc2)c2ccccc2C1(Cc1ccncc1)Cc1ccncc1: inactive
CCN1CC(CCN2CCOCC2)C(c2ccccc2)(c2ccccc2)C1=O.Cl (stereo not shown): inactive
COC(=O)C1=C(C)NC(C)=C(C(=O)O[C@@H]2CCCN(Cc3ccccc3)C2)[C@@H]1c1cccc([N+](=O)[O-])c1.Cl (racemic): inactive
C[C@H]1C[C@H]2[C@@H]3CCC4=CC(=O)C=C[C@]4(C)[C@@]3(Cl)[C@@H](O)C[C@]2(C)[C@@]1(O)C(=O)CO: inactive
CC(Cc1ccccc1)(NC(=O)CN)c1ccccc1.Cl (stereo not shown): inactive
Nc1ncnc2c1ncn2[C@@H]1O[C@H](CO)C[C@H]1O: inactive
Fc1ccc([C@@H]2CCNC[C@H]2COc2ccc3c(c2)OCO3)cc1.O=C(O)/C=C\C(=O)O: inactive
Cl.NC[C@H](O)c1ccc(O)c(O)c1: inactive
C[C@]12CC[C@@H]3c4ccc(OS(=O)(=O)O)cc4CC[C@H]3[C@@H]1CCC2=O: inactive
COc1cc(N)c(Cl)cc1C(=O)NC1CCN(CCCOc2ccc(F)cc2)CC1OC.O (stereo not shown): inactive
Nc1c2c(nc3c1CCC3)CCCC2: inactive
CCN(CC)C(=O)C1(c2ccccc2)CC1CN.Cl (stereo not shown): inactive
CC(C)C[C@H](NC(=O)[C@@H](COC(C)(C)C)NC(=O)[C@H](Cc1ccc(O)cc1)NC(=O)[C@H](CO)NC(=O)[C@H](Cc1c[nH]c2ccccc12)NC(=O)[C@H](Cc1cnc[nH]1)NC(=O)[C@@H]1CCC(=O)N1)C(=O)N[C@@H](CCCNC(=N)N)C(=O)N1CCC[C@H]1C(=O)NNC(N)=O: inactive

Study 4
SMILES: CC(C)(O)c1cncc(-c2nc3ccc(F)cc3n2C2CC2)c1
Effect on: cell-free assay
Technique: competition with immobilised ligand
Tested at: 1 µM
Measurement: remaining binding
AXL (Homo sapiens, UniProt P30530): 100%
STK33 (Homo sapiens, UniProt Q9BYT3): 100%
STK25 (Homo sapiens, UniProt O00506): 100%
MAP3K9 (Homo sapiens, UniProt P80192): 100%
NIM1K (Homo sapiens, UniProt Q8IY84): 100%
IRAK4 (Homo sapiens, UniProt Q9NWZ3): 100%
GRK4 (Homo sapiens, UniProt P32298): 100%
CDK3 (Homo sapiens, UniProt Q00526): 100%
GRK7 (Homo sapiens, UniProt Q8WTQ7): 86%
RET (Homo sapiens, UniProt P07949, V804L): 100%
MARK3 (Homo sapiens, UniProt P27448): 100%
Tyrosine-protein kinase ABL1, phosphorylated (ABL1, Homo sapiens, UniProt P00519, T315I): 100%
MAPK13 (Homo sapiens, UniProt O15264): 100%
CLK3 (Homo sapiens, UniProt P49761): 100%
EPHA6 (Homo sapiens, UniProt Q9UF33): 100%
STK26 (Homo sapiens, UniProt Q9P289): 100%
BTK (Homo sapiens, UniProt Q06187): 83%
ACVR1 (Homo sapiens, UniProt Q04771): 100%
NUAK2 (Homo sapiens, UniProt Q9H093): 100%
LCK (Homo sapiens, UniProt P06239): 100%
Ribosomal protein S6 kinase alpha-1, N-terminal kinase domain (RPS6KA1, Homo sapiens, UniProt Q15418): 100%
GRK3 (Homo sapiens, UniProt P35626): 79%
PIK3CA (Homo sapiens, UniProt P42336): 100%
CDK8 (Homo sapiens, UniProt P49336): 95%
PRKD2 (Homo sapiens, UniProt Q9BZL6): 100%

Repeated from above (study 4):
STK26 (Homo sapiens, UniProt Q9P289): 100%
BTK (Homo sapiens, UniProt Q06187): 83%
ACVR1 (Homo sapiens, UniProt Q04771): 100%
NUAK2 (Homo sapiens, UniProt Q9H093): 100%
LCK (Homo sapiens, UniProt P06239): 100%
Ribosomal protein S6 kinase alpha-1, N-terminal kinase domain (RPS6KA1, Homo sapiens, UniProt Q15418): 100%
GRK3 (Homo sapiens, UniProt P35626): 79%
PIK3CA (Homo sapiens, UniProt P42336): 100%
